Results from different studies.
Lines come from different studies, so protocols differ.
Organism: Escherichia coli

Structure (SMILES)	read-out	technique	strain	matrix	time	temperature	MIC
CCCCO[C@H]1[C@H](O)[C@@H](N)[C@@H](O[C@H]2[C@H](O[C@@H]3O[C@H](CO)[C@@H](O[C@H]4O[C@@H](CN)[C@@H](O)[C@H](O)[C@H]4N)[C@H]3O)[C@@H](O)[C@H](N)C[C@@H]2N)O[C@@H]1CO		broth microdilution	clinical isolate AG 001				64 µg/mL
COc1ccc2c(c1)[O][Au-]13[O]c4ccc5ccc(OC)cc5c4C=[N+]1C1CCCCC1[N+]3=C2.F[P-](F)(F)(F)(F)F (stereo not shown)	bacterial growth	broth microdilution	carbapenem-resistant clinical isolate		24 h		> 20 µM
COc1c(CC=C(C)C)c(O)cc2c1-c1oc3c(CC=C(C)C)c(O)ccc3c1CO2			TISTR 780				128 µg/mL
COc1ccc2ccc3c(c2c1)C=[N+]1C2CCCCC2[N+]2=Cc4cc(C(C)(C)C)cc(C(C)(C)C)c4[O][Au-]21[O]3.F[P-](F)(F)(F)(F)F (stereo not shown)	bacterial growth	broth microdilution	carbapenem-resistant clinical isolate		24 h		> 20 µM
CN1CCC(NCCC2(Cc3ccc(Cl)cc3)CCCCC2)CC1			TOP10F′		10 h		50 µM
O=C1OCC(SCc2ccccc2)N1/N=C/c1ccc([N+](=O)[O-])o1 (stereo not shown)	microbial growth	broth dilution	ATCC25922		18 h		> 50 µg/mL
CC(CCCOC(=O)CCC[N+](C)(C)C)C1CCC2C3CCC4CC(OC(=O)CCC[N+](C)(C)C)CCC4(C)C3CCC12C (stereo not shown)	microbial growth	broth dilution	ATCC25922		16 h		1 µg/mL
C/C(=N\NC(N)=S)c1ccc2c(c1)sc1nc(=O)c(C#N)cn12	microbial growth	broth dilution					< 44 µg/mL
COc1ccc2ccc3c(c2c1)C=[N+]1C2CCCCC2[N+]2=Cc4c(C)cccc4[O][Au-]21[O]3.F[P-](F)(F)(F)(F)F (stereo not shown)	bacterial growth	broth microdilution	carbapenem-resistant clinical isolate		24 h		20 µM
CC1COC(=O)N1/N=C/c1ccc([N+](=O)[O-])o1 (stereo not shown)	microbial growth	broth dilution	ATCC25922		18 h		6.25 µg/mL
Cc1cc(=O)nc(NC(=O)NCCCCCCNC(=O)NCCCCCCNC(=O)OCCOCCOCCOCCOCCOCCOCC(=O)N[C@@H](CC(C)C)C(=O)N[C@@H](CCCCN)C(=O)N[C@@H](CC(C)C)C(=O)N[C@@H](CC(C)C)C(=O)N[C@@H](CCCCN)C(=O)N[C@@H](CCCCN)C(=O)N[C@@H](CC(C)C)C(=O)N[C@@H](CC(C)C)C(=O)N[C@@H](CCCCN)C(=O)N[C@@H](CCCCN)C(=O)N[C@@H](CC(C)C)C(=O)N[C@@H](CC(C)C)C(=O)N[C@@H](CCCCN)C(=O)N[C@@H](CC(C)C)C(=O)N[C@@H](CC(C)C)C(N)=O)[nH]1			ATCC 8937	RPMI medium	24 h	37 °C	1.9 to 3.7 µM
NC[C@@H]1O[C@H](O[C@H]2[C@@H](O)[C@H](O[C@@H]3[C@@H](O)[C@H](N)C[C@H](N)[C@H]3O[C@H]3O[C@H](CO)[C@@H](OCCO)[C@H](O)[C@H]3N)O[C@@H]2CO)[C@H](N)[C@@H](O)[C@@H]1O		broth microdilution	clinical isolate AG 001				32 to 64 µg/mL
COc1ccc2ccc3c(c2c1)C=[N+]1C2CCCCC2[N+]2=Cc4ccc(OCCN5CCCCC5)cc4[O][Au-]21[O]3.F[P-](F)(F)(F)(F)F (stereo not shown)	bacterial growth	broth microdilution	carbapenem-resistant		24 h		20 µM
CCCCCCCCCCCCCCN1C(=O)/C(=N\NC(=N)N)c2cc(C)ccc21	microbial growth	broth dilution			18 h		> 192 µg/mL
Cc1cc(/C=C2\Sc3ccccc3N2CCCN2CCCC2)c2ccccc2[n+]1C	microbial growth	broth dilution	ATCC25922				4 µg/mL
CO[C@@H](C(N)=O)[C@H](NC(=O)c1ccc(NC(=O)c2ccc([N+](=O)[O-])cc2)cc1)C(=O)Nc1ccc(C(=O)Nc2ccc(C(=O)Nc3ccc(C(=O)O)cc3)c(O)c2OC(C)C)cc1	microbial growth		DSM1116				0.125 µg/mL
O=C(CC1COC(=O)N1/N=C/c1ccc([N+](=O)[O-])o1)c1ccccc1 (stereo not shown)	microbial growth	broth dilution	ATCC25922		18 h		> 50 µg/mL
CCCCCCCCCc1nc2cc(Cl)ccc2c(=O)n1CCN			MG1655				inactive
CSCC[C@H](NC(=O)[C@H](CCCNC(=N)N)NC(=O)[C@H](Cc1c[nH]c2ccccc12)NC(=O)[C@H](CCC(N)=O)NC(=O)[C@H](Cc1c[nH]c2ccccc12)NC(=O)[C@H](CCCNC(=N)N)NC(=O)[C@@H](N)CCCNC(=N)N)C(=O)N[C@@H](CCCCN)C(=O)N[C@@H](CCCCN)C(=O)N[C@@H](CC(C)C)C(=O)NCC(=O)NCCCC[C@H](NC(=O)CNC(=O)[C@H](CC(C)C)NC(=O)[C@H](CCCCN)NC(=O)[C@H](CCCCN)NC(=O)[C@H](CCSC)NC(=O)[C@H](CCCNC(=N)N)NC(=O)[C@H](Cc1c[nH]c2ccccc12)NC(=O)[C@H](CCC(N)=O)NC(=O)[C@H](Cc1c[nH]c2ccccc12)NC(=O)[C@H](CCCNC(=N)N)NC(=O)[C@@H](N)CCCNC(=N)N)C(=O)NCCCCCC(N)=O		broth microdilution	ATCC 43827		24 h	37 °C	8 µM
CC(=O)[O][Ag]=[c]1n(C)ccn1CC(O)c1ccccc1 (stereo not shown)		broth dilution	ATCC 25922		18 h	37 °C	10 µg/mL
C/C(=N\NC1=NC(=O)CS1)c1ccc2c(c1)sc1nc(=O)c(C#N)cn12	microbial growth	broth dilution					< 33 µg/mL
c1ccc(CN2CCOCCOCCN(CCCCCCCCCCN3CCOCCOCCN(CCCCCCCCCCN4CCOCCOCCN(Cc5ccccc5)CCOCCOCC4)CCOCCOCC3)CCOCCOCC2)cc1	microbial growth						13 µM
CCC(O)CC#Cc1ccc(-n2nnc(/C(C)=N\NC(=N)N)c2C)cc1 (stereo not shown)	microbial growth	broth dilution	BW25113				> 64 µg/mL
CCn1[c]([Au-][Cl])[n+](CC)c2ccc(C(=O)OC)cc21		broth dilution	DSM 1116		20 h	37 °C	> 30 µM
C=CCO[C@H]1[C@H](O)[C@@H](N)[C@@H](O[C@H]2[C@H](O[C@@H]3O[C@H](CO)[C@@H](O[C@H]4O[C@@H](CN)[C@@H](O)[C@H](O)[C@H]4N)[C@H]3O)[C@@H](O)[C@H](N)C[C@@H]2N)O[C@@H]1CO		broth microdilution	clinical isolate AG 001				64 µg/mL
Cc1ccc(NC(=O)C2C(=O)C(c3ccccc3)c3ccc4c(c32)C(=O)c2ccccc2C4=O)cc1 (stereo not shown)	microbial growth						> 100 µg/mL
NC[C@@H]1O[C@H](O[C@H]2[C@@H](O)[C@H](O[C@@H]3[C@@H](O)[C@H](N)C[C@H](N)[C@H]3O[C@H]3O[C@H](CO)[C@@H](OCC(O)CO)[C@H](O)[C@H]3N)O[C@@H]2CO)[C@H](N)[C@@H](O)[C@@H]1O (stereo partly shown)		broth microdilution	clinical isolate AG 055				16 to 32 µg/mL
CCCCc1ccc(N2C(=O)/C(=N\NC(=N)N)c3cc(F)ccc32)cc1	microbial growth	broth dilution			18 h		48 µg/mL

A few entries again:
Structure (SMILES)	read-out	technique	strain	matrix	time	temperature	MIC
CN1CCC(NCCC2(Cc3ccc(Cl)cc3)CCCCC2)CC1			TOP10F′		10 h		50 µM
COc1ccc2ccc3c(c2c1)C=[N+]1C2CCCCC2[N+]2=Cc4c(C)cccc4[O][Au-]21[O]3.F[P-](F)(F)(F)(F)F (stereo not shown)	bacterial growth	broth microdilution	carbapenem-resistant clinical isolate		24 h		20 µM
